Measurements from different studies.
Every numbered part comes from another study and shows a few of its results, in no order.

Sample 1 — technique: aptamer microarray, sandwich; molecule type: DNA with 2'F-ANA; sample: in vitro; tested at: 200 nM; added: Cy3 exosite-II aptamer, 400 nM; reading: higher = stronger binding; measurement: mean fluorescence intensity; strand: GGTTGGTGTGGTTGG
Target: Prothrombin, mature alpha-thrombin (F2, Homo sapiens, UniProt P00734)
Notes: whole 15-mer aptamer, many near background
2'F-ANA at 2 5 6 7 10 11 12 13 14 15: 54.7 a.u.
2'F-ANA at 2 6 8 10 11 13 14: 87.7 a.u.
2'F-ANA at 10 13: 177 a.u.
2'F-ANA at 3 9 11 12 15: 1250 a.u.
2'F-ANA at 6 12 13 15: 621 a.u.
2'F-ANA at 2 3 4 5 8 10 11 13 14 15: 68.1 a.u.
2'F-ANA at 1 4 5 6 7 8 9: 73.2 a.u.
2'F-ANA at 2 5 7 8 10 14 15: 46.6 a.u.
2'F-ANA at 1 3 7 11 14 15: 90 a.u.
2'F-ANA at 1 3 5 7 8 11 12 14 15: 91.4 a.u.
2'F-ANA at 2 10 11 12 13 14 15: 82.2 a.u.
2'F-ANA at 5 8 9 11 12 13 14 15: 58.8 a.u.
2'F-ANA at 2 4 5 6 8 11 12 14 15: 60 a.u.
2'F-ANA at 4 6 10 13 14 15: 56.6 a.u.
2'F-ANA at 3 5 8 11 12 13 14: 71.6 a.u.
2'F-ANA at 1 2 5 9 10 12 15: 55.3 a.u.
2'F-ANA at 2 4 6 8 10 12 14: 61.1 a.u.
2'F-ANA at 4 5 6 12 13 15: 87.6 a.u.
2'F-ANA at 1 4 5 6 7 8 12 13 15: 75.9 a.u.
2'F-ANA at 1 2 3 7 8 10 12 13 15: 109 a.u.
2'F-ANA at 1 5 7 9 10 11 13: 105 a.u.
2'F-ANA at 3 7 8 9 12 13 15: 1310 a.u.

Sample 2 — technique: protein binding microarray; molecule type: double-stranded DNA, one strand shown; sample: in vitro; tested at: not given; relative to: not given; reading: higher = stronger binding; measurement: E-score
Target: Histone acetyltransferase KAT6A, winged helix 1, GST fusion (KAT6A, Homo sapiens, UniProt Q92794, residues 1-85)
Notes: 8-mer, flanks averaged, mean of 2 arrays, mostly near background
Construct (chain): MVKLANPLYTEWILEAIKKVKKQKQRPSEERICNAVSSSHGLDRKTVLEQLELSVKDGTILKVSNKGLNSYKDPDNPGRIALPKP
CCGGGCAA: 0.287
ACCGGCTG: 0.13
CTACCACA: -0.235
GTTGTTAA: 0.033
AAATAGAC: -0.133
GGCGTAGA: 0.117
ACCAGATA: -0.153
CTGTCCGC: 0.231
AAAGGGCG: 0.0576
ACAGTACT: -0.222
AACCAGTC: 0.0286
CATGGGGC: -0.0675
TCGGAGCA: -0.0384
AGCCCGGG: 0.301
ATGTGGCC: -0.163
CATACTCA: -0.213
GCGAGTAA: 0.149
GCACAAAC: -0.185
ACTTTAAT: -0.129
AGCCCACA: -0.288
GAGCGAGC: 0.122
CATGAACG: -0.0124
CCATTGGC: -0.119
AGTACAGG: -0.115
AAGGCCCG: 0.269

Sample 3 — technique: universal PBM; molecule type: double-stranded DNA, one strand shown; sample: in vitro; tested at: 600 nM; reading: higher = stronger binding; measurement: E-score
Target: Sal-like protein 4, full length isoform A (SALL4, Homo sapiens, UniProt Q9UJQ4, residues 1-1053)
Chain of UniProt Q9UJQ4 (whole entry, looked up): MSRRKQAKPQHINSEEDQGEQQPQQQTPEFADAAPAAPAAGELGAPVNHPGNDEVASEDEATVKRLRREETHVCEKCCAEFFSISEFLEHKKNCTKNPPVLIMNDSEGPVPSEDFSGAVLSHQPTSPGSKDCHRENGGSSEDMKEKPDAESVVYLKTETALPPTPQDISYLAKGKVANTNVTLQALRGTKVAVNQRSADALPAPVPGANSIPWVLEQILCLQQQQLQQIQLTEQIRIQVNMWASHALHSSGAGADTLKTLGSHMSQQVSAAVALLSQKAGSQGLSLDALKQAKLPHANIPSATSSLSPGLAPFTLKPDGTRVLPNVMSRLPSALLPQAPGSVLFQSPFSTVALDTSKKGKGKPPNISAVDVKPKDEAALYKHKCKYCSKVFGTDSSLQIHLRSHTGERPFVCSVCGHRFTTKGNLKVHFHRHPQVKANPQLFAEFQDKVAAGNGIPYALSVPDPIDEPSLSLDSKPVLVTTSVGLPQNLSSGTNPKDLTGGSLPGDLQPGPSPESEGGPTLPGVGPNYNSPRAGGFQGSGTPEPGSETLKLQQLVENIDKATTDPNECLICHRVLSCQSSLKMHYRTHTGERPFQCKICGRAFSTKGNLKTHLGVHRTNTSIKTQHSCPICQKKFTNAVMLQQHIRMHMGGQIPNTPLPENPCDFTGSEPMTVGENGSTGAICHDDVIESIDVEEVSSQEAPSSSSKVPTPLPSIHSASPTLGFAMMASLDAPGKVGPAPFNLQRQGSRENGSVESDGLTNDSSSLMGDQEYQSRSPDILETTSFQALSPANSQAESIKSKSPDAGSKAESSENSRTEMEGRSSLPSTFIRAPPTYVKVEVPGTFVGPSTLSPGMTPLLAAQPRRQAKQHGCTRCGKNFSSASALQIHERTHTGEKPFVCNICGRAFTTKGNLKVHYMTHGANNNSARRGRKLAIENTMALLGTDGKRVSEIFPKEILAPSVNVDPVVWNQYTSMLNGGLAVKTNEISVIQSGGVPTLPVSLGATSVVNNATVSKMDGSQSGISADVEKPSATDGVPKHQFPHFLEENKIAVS
Notes: 8-mer, flanks averaged, mean of replicates
CATGGCTA: 0.0812
AGCCTACG: -0.0932
ACAACAAT: 0.231
CACGCACC: -0.334
CGTCGTCA: -0.136
CCCGTGCG: -0.348
ACCACCGC: -0.273
AATCCTTA: 0.263
CGCACGAG: -0.228
AGCCCTGG: -0.295
ATGCAGTG: -0.106
CCGGTCAG: -0.275
AGCGGGCA: -0.276
CGATATCA: 0.187
CTTCACGC: -0.0819
AGGAAGTA: 0.0261
ATACTGTC: 0.232
AGGCGCTA: -0.0452
CCAAAAAC: 0.116

Sample 4 — technique: protein-binding microarray; molecule type: double-stranded DNA, one strand shown; sample: in vitro; tested at: 250 nM; notes: 60-bp whole probe; added: salmon DNA 0.4 mg/ml; relative to: random background probes; reading: higher = stronger binding; measurement: log fluorescence; all sequences stand within: GCCTAGCAC … GTCTTGATTCGCTTGACGCTGCTG
Target: Interferon regulatory factor 5, full length, phosphomimetic (IRF5, Homo sapiens, UniProt Q13568-2, residues 1-514, K96S/S451D/S453D/S456D/S462D)
TCAAAGATCATTCTCACACTGTGCTAG: 0.211 z-score
TTAGCTTTCAGTTCCGATTAGTGCTAG: 6.35 z-score
TTAGATTTCAGGTTTCGATTAGTGCTA: 7.44 z-score
TCAAGTCCCTATCTCCTACTGTGCTAG: 0.000799 z-score
TTAGGTTTCCTTTCCTTTTAGTGCTAG: 1.87 z-score
TGCTCTTTCTACATAGATGTGTGCTAG: 2.03 z-score
TTAGATATCAGTCTCGATTAGTGCTAG: 2.22 z-score
GACTGACTGCTTATCCTGACGTGCTAG: -0.0985 z-score
GCTCTCTTCTGCTTCCTCAGGTGCTAG: 0.279 z-score
AAACCATTTTTTTTCACTATGTGCTAG: 1.9 z-score
TCAACTTTCTTTACTTCACTGTGCTAG: 2.1 z-score
TAAGATATCAGTCTCGATTAGTGCTAG: 1.75 z-score
GACGATTTCAGGTTCGAGACGTGCTAG: 0.783 z-score
TTAGGTATCAGGACTGGGTTAGTGCTA: 0.45 z-score
ACAGCTCTGCGGTTCAGATAGTGCTAG: -0.252 z-score
GACGGTATCGGACTGGGGCCGTGCTAG: 0.698 z-score
ATAGATTTCGGGTATCGATTAGTGCTA: 7.52 z-score
CTGCCTCACATTGCTAAGACGTGCTAG: -0.219 z-score
TCACTTATCCTTCCCCTACTGTGCTAG: 0.318 z-score

Sample 5 — technique: RNA Bind-n-Seq; molecule type: RNA; sample: in vitro; tested at: 1 µM; notes: whole 134-nt RNA, ends assumed; added: 150 mM KCl; relative to: input library; reading: higher = stronger binding; measurement: log2 enrichment
Target: Ras GTPase-activating protein-binding protein 1, C-terminal RGG region (G3BP1, Homo sapiens, UniProt Q13283)
Chain of UniProt Q13283 (whole entry, looked up): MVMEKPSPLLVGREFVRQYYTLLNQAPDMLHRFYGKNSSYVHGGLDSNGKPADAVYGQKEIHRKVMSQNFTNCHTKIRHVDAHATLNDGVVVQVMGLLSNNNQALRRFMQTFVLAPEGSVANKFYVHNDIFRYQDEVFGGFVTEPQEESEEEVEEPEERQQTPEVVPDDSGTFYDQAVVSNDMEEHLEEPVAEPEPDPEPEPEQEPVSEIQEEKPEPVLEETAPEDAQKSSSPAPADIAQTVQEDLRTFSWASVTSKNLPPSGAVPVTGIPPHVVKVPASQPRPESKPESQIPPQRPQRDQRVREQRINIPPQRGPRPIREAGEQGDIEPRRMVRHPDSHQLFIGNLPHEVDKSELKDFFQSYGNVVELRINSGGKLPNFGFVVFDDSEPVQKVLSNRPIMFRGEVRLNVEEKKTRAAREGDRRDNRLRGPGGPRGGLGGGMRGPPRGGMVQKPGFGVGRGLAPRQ
All sequences stand within: GGGAGUUCUACAGUCCGACGAUC … UGGAAUUCUCGGGUGUCAAGG
AGCAUGCAGGUGGGCAUCUUUGGGAAGUGGGGCAAGGGGGGGAUAGGGAGGGGGGUAACACUUUGGGAACAGGUGGUCCCAGGUCGUUUC: -1.15
UAACUUUAGAGGAGGAUCUGAUGGAUAUGGCAGUGGACGUGGAUUUGGGGAUGGCUAUAAUGGGUAUGGAGAAGGACCUGGAGGUGGCAA: -0.579
UGUUGGGCUUCGAUCCCAGGUGGAUGAUGAUGCCUUCCUACAUGGACCCACGUAUCACGCCCACUCGGACCCCGGUGGACUUCUACCCCU: 0.138
UGGGAGGUGGAUUUUGUUUAUUUUUUUAGCGCAUUUCCAGGGGUGGGAAUUUUUUUUUAAUAUGUGUCAUGAAUAAAGUUGUUUUUGAAA: 3.76
AAGUCCUGUGCUACACAUCGUAUGUACCGAAUCGGGAAAAAGGGUGGGUUUUUGGGAAAGUAUUAUGUUACGCCGUUCGGAUCUGCACUU: 1.31
UGGGAGGUGGAUUUUGUUUAUUUUUUUAGCUCAUCUCCAGGGGUGGGAAUUUUUUUUUAAUAUGUGUCAUGAAUAAAGUUGUUUUUGAAA: 3.39
UGAAGCGAGAAGCUGCCCUACCCCCAGUGAGCCCCCUGAAGGCGGCUCUCUCUGAGGAGGAGUUAGAGAAGAAAUCCAAGGCUAUCAUUG: -1.55
CCUGUGCUACACAUCGUAUGUACCGAAUCGGGAAAAAAGGGAAAAAAGGGAAAAAAGGGGAAAGUAUUAUGUUACGCCGUUCGGAUCUGC: -1.56
CCUGUGCUACACAUCGUAUGUACCGAAUCGGGGUUUUUGGGGAAAAAAAGGGGUUUGGGGAAAGUAUUAUGUUACGCCGUUCGGAUCUGC: 0.647

For quick reference, copied from above (sample 2):
GGCGTAGA: 0.117
ACCAGATA: -0.153
CTGTCCGC: 0.231
AAAGGGCG: 0.0576
ACAGTACT: -0.222
AACCAGTC: 0.0286
CATGGGGC: -0.0675
TCGGAGCA: -0.0384
AGCCCGGG: 0.301
ATGTGGCC: -0.163
CATACTCA: -0.213
GCGAGTAA: 0.149
